Measurements pooled from the literature.
Parts stem from different laboratories: compare values within a part only.
Chain of UniProt Q8IWQ3 (whole entry, looked up): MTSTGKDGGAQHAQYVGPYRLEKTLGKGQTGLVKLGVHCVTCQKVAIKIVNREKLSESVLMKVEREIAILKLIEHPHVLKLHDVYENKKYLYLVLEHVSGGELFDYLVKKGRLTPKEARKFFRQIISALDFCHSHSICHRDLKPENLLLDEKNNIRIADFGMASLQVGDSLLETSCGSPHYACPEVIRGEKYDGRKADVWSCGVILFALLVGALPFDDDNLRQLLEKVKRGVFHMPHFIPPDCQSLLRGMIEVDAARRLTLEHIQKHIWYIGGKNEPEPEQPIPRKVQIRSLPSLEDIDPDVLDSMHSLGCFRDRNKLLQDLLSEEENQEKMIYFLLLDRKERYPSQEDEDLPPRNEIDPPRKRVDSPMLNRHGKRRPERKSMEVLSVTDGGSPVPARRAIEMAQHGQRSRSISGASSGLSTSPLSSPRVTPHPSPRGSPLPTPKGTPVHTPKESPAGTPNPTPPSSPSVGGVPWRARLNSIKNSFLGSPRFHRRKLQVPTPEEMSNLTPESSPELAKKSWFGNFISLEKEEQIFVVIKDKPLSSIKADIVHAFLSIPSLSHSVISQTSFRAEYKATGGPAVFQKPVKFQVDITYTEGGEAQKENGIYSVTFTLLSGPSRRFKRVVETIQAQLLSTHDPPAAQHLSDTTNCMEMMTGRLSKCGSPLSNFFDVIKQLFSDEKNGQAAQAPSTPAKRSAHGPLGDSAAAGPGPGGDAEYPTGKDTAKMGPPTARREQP
Chain of UniProt P50613 (whole entry, looked up): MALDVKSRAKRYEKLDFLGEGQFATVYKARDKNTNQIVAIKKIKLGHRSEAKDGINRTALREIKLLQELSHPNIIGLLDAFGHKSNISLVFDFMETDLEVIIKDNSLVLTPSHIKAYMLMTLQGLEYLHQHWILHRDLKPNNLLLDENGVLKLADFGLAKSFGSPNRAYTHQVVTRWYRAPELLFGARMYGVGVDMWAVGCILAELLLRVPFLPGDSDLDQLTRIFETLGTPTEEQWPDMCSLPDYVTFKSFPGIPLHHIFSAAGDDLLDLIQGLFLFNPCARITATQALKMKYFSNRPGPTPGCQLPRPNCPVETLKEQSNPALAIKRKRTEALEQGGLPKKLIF
Chain of UniProt Q8TDX7 (whole entry, looked up): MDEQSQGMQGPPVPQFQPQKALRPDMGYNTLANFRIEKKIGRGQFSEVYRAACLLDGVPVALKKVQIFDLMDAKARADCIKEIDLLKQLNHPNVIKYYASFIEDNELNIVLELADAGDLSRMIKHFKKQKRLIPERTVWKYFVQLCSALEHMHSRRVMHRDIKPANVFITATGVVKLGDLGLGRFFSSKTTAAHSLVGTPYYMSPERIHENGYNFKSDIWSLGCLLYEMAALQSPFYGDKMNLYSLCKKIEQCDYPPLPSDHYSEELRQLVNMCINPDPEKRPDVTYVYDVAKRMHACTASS

Sample 1
Organism: Plasmodium berghei
Mode: inhibitor
Cell line: Huh-7
Strain: liver stage
Tested at: 10 µM
Time: 24 h
Reference: untreated control
The infection rate of `COc1ccc2c(c1OC)C(=O)O[C@@H]2[C@H]1c2cc3c(cc2CCN1C)OCO3` is reported as 120%.
With `CCOC(=O)c1cncn1[C@H](C)c1ccccc1` the infection rate was 108%.
For `C[C@H](N)[C@H](O)c1ccc(O)c(O)c1`, the infection rate was 97.3%.

Sample 2
Structure (SMILES): Cn1cncc1[C@](O)(COc1ccc(C#N)cc1-c1ccc(OC(F)(F)F)cc1)c1ccc(C#N)cc1
Observed: binding
Method: competition with immobilised ligand
CDK7 (Homo sapiens, UniProt P50613) — Kd: over 10 µM.
For BRSK2 (Homo sapiens, UniProt Q8IWQ3): Kd read over 10 µM.
NEK7 (Homo sapiens, UniProt Q8TDX7) — Kd: over 10 µM.

Single results of other studies
The remaining compound of `CC12CC3(C(=O)Nc4ccc(Cl)cc4C(=O)c4ccccc4)C1CCC23C` (stereo not drawn) is reported as 2.4% (mouse, microsomes or S9; 2 µM, 0.5 h).
For `CN[C@H](CC(C)C)C(=O)N[C@H]1C(=O)N[C@@H](CC(N)=O)C(=O)N[C@H]2C(=O)N[C@H]3C(=O)N[C@H](C(=O)N[C@H](C(=O)O)c4cc(O)cc(O)c4-c4cc3ccc4O)[C@H](O)c3ccc(c(Cl)c3)Oc3cc2cc(c3O[C@@H]2O[C@H](CO)[C@@H](O)[C@H](O)[C@H]2O[C@H]2C[C@](C)(N)[C@H](O)[C@H](C)O2)Oc2ccc(cc2Cl)[C@H]1O`, MIC change read “no effect” (Staphylococcus aureus; hemB transposon mutant; concentration not given; reference: wild type).
With `CC(C)n1nc(O)c2c1NC(=O)CSC2c1ccc(C(=O)O)cc1` (stereo not drawn) the remaining compound was 85.6% (mouse, microsomes or S9; 2 µM, 0.5 h).

Repeated from above (sample 2):
CDK7 (Homo sapiens, UniProt P50613) — Kd: over 10 µM.
